Measured values pooled from the literature.
Numbered parts are unrelated; each lists some results of a single study.
Sequence of UniProt Q9Y261 (142-269, looked up): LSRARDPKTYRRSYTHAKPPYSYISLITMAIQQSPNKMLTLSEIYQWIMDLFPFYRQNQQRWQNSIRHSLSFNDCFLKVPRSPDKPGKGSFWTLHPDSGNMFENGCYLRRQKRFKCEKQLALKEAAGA
Sequence of UniProt P10914 (1-114, looked up): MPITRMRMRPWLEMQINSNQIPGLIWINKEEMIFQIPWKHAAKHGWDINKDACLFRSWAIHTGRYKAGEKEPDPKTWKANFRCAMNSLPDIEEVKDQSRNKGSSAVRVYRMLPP
Sequence of UniProt Q13761 (53-186, looked up): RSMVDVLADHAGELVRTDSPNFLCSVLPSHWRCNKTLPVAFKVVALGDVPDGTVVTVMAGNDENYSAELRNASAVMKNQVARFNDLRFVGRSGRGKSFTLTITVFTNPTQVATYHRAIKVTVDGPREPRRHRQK
Sequence of UniProt Q9SV15 (228-325, looked up): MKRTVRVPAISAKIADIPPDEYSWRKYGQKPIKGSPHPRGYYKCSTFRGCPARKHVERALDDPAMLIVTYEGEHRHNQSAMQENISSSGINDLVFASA
Sequence of UniProt O43248 (whole entry, looked up): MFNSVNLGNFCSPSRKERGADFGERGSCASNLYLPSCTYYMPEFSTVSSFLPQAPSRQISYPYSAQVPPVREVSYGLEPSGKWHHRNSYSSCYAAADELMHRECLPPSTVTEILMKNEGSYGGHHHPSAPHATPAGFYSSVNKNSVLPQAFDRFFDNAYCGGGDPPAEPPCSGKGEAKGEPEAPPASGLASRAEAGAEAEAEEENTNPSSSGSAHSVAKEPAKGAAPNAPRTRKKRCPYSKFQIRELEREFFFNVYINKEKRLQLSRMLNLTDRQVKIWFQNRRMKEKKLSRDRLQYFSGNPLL

Study 1 — method: RNA Bind-n-Seq; form: RNA; matrix: in vitro; tested at: 200 nM; setting: whole 134-nt RNA, ends assumed; together with: 150 mM LiCl; reference: input library; reading: higher = stronger binding; quantity: log2 enrichment; each molecule: 7-deaza-guanosine replaces G
Target: Fragile X messenger ribonucleoprotein 1, C-terminal low-complexity region (Fmr1, Mus musculus, UniProt P35922)
All sequences stand within: GGGAGUUCUACAGUCCGACGAUC … UGGAAUUCUCGGGUGUCAAGG
UGGCCCUGGUGGCAUGCGGGGAGGAAGAGGUGGCCUCAUGGAUUGUGGUGGUCCCGGUGGAAUGUUCAGAGGUGGCCGUGGUGGAGACAG: 1.01
UGGGAGGUGGAUUUUGUUUAUUUUUUUAGCUCAUUUCCAGGGGUGGGAAUUUUUCUUUAAUAUGUGUCAUGAAUAAAGUUGUUUUUGAAA: -0.655
CAAGUCCUGUGCUACACAUCGUAUGUACCGAAUCGGCCCCGGCCCCGGGCCCCGGAAAGUAUUAUGUUACGCCGUUCGGAUCUGCACUUC: -1.56
UGGGAGGUGGAUUUUGUUUAUUUUUUUAGCUCAUUUCCAGGGGUGGGAAUUCUUUUUUAAUAUGUGUCAUGAAUAAAGUUGUUUUUGAAA: 0.0907
AGUCCUGUGCUACACAUCGUAUGUACCGAAUCGGGUUUUUGGGUUUGGGUUUUUGGGAAAGUAUUAUGUUACGCCGUUCGGAUCUGCACU: -1.9
GCAGGAAGUAAAAACAAAUGGAAUUGCUUCGGAUAGUGGCAGGGGUGGGGGUUGCUAAGGAAAGGGUGGGAUGGGAGUGGGUAAAGAGUU: 1.38
UGGGAGGUGGAUUUUGUUUAUUUUUUUAGCUCAUCUCCAGGGGUGGGAAUUUUUUUUUAAUAUGUGUCAUGAAUAAAGUUGUUUUUGAAA: -0.0716
UCAAGUCCUGUGCUACACAUCGUAUGUACCGAAUCGGUUUGGUUUGGUUUGGGGAAAGUAUUAUGUUACGCCGUUCGGAUCUGCACUUCC: -1.24

Study 2 — observed: enzyme activity; action: inhibitor; tested at: 20 µM; setting: primary screen; quantity: inhibition
Target: Replicase polyprotein 1ab, main protease (rep, Severe acute respiratory syndrome coronavirus 2, UniProt P0DTD1)
CC1(C)CC[C@]2(C(=O)O)CC[C@]3(C)[C@H](C(=O)C=C4[C@@]5(C)C=C(C#N)C(=O)C(C)(C)[C@@H]5CC[C@]43C)[C@@H]2C1: 28.5%
Cc1ccc(C(=O)n2nc(-c3cccnc3)nc2N)cc1: 46.3%
CC(C)(C)OC(=O)NCCc1nnc(S(=O)(=O)Cc2ccc(Cl)cc2Cl)o1: 61.5%
COc1ccc(C(=O)n2nc(-c3ccccc3)nc2N)cc1OC: 26.3%

Study 3 — action: inhibitor; tested at: 20 µM; quantity: inhibition
Target: Replicase polyprotein 1ab, nsp13 helicase (rep, Severe acute respiratory syndrome coronavirus 2, UniProt P0DTD1)
CC(=O)OCC(=O)[C@@]1(OC(C)=O)[C@@H](C)C[C@H]2[C@@H]3C[C@H](F)C4=CC(=O)C=C[C@]4(C)[C@@]3(F)[C@@H](O)C[C@@]21C: 3.77%
CCNC(=O)CCC/C=C\C[C@@H]1[C@@H](/C=C/[C@@H](O)CCc2ccccc2)[C@H](O)C[C@@H]1O: -2.05%
O=c1cc(N2CCN(c3cccc(C(F)(F)F)c3)CC2)[nH]c(=O)n1C1CCCCC1: 2.14%
Cn1c(CNc2ccc(C(=N)N)cc2)nc2cc(C(=O)N(CCC(=O)O)c3ccccn3)ccc21: 11.7%
O=C1c2ccccc2C(Cc2ccncc2)(Cc2ccncc2)c2ccccc21: -3.34%
Cc1cc(N2CCCCC2)nc2ccccc12: -2.27%
Nc1ncnc2c1ncn2[C@@H]1O[C@H](CO)C[C@H]1O: 6.8%
CCN(CC)CCOc1ccc2c(c1)C(=O)c1cc(OCCN(CC)CC)ccc1-2: 64%
COc1cccc(OC)c1C(=O)N[C@@H]1C(=O)N2[C@@H]1SC(C)(C)[C@@H]2C(=O)O: 4.46%
O=C(Nc1ccc(S(=O)(=O)Nc2ccccc2Cl)c(Cl)c1)c1ccccn1: 8.02%
O=[N+]([O-])c1ccc(O)c([N+](=O)[O-])c1: 6.61%
CCN(CC)c1ccc(/C=N/NC(=O)c2ccc(O)cc2)cc1: 5.99%
CCN1CCCC(OC(=O)C(c2ccccc2)c2ccccc2)C1 (stereo not shown): -1.02%
C[C@@]1(F)[C@H](O)[C@@H](CO)O[C@H]1n1ccc(N)nc1=O: -0.03%
Cc1c(-c2ccc(-c3ccccc3F)cc2)nc2ccc(F)cc2c1C(=O)O: 1.77%
O=C(CCCCCN1C(=O)c2cccc3cccc(c23)C1=O)NO: 5.87%
COc1cc2ncnc(Oc3cccc(NC(=O)Nc4cc(C(C)(C)C(F)(F)F)on4)c3)c2cc1OC: 3.49%

Study 4 — cell line: HEK-293T; observed: pseudovirus infection; method: FDA-approved drug library screen; organism: VSV pseudotyped with SARS-CoV-2 spike; tested at: 10 µM; time: 16 h; reference: vehicle-treated; quantity: GFP-positive cells
CO/N=C(\C(=O)N[C@@H]1C(=O)N2C(C(=O)O)=C(C[N+]3(C)CCCC3)CS[C@H]12)c1csc(N)n1: 101%
CN(C)c1ccc(C(=C2C=CC(=[N+](C)C)C=C2)c2ccc(N(C)C)cc2)cc1: 22.5%
C[N+]1(C)CCCC(OC(=O)C(O)(c2ccccc2)c2ccccc2)C1 (stereo not shown): 77.4%

Single results of other studies — tested at: not given; reading: higher = stronger binding
GAGGCCCCGAAGTGAAACGCCTCCTGGCGTTTCACTTCGGGGCCTCACAC
median fluorescence (Interferon regulatory factor 1, DNA-binding domain (IRF1, Homo sapiens, UniProt P10914, residues 1-114); protein-binding microarray; hairpin DNA, in vitro; whole hairpin DNA, median over replicate spots; reference: not given): 628 a.u.

AAAAAATTCCGCGTGTATGTGTACGTAAAA
relative absorbance (Probable WRKY transcription factor 11, DNA-binding domain (WRKY11, Arabidopsis thaliana, UniProt Q9SV15, residues 228-325); DNA-protein interaction ELISA; double-stranded DNA, one strand shown, in vitro, bacterial lysate; whole dsDNA probe, crude lysate protein; reference: highest signal in screen): 16.4 % of maximum

GAGGCCAGCGCGTAAAAGCCTCCTGGCTTTTACGCGCTGGCCTCACACTC
median fluorescence (Homeobox protein Hox-C11, full length (HOXC11, Homo sapiens, UniProt O43248, residues 1-304); protein-binding microarray; hairpin DNA, in vitro; whole hairpin DNA, median over replicate spots; reference: not given): 10600 a.u.

GAGGCCATGCGAACAACGCCTCCTGGCGTTGTTCGCATGGCCTCACACTC
median fluorescence (Hepatocyte nuclear factor 3-beta, forkhead domain (FOXA2, Homo sapiens, UniProt Q9Y261, residues 142-269); protein-binding microarray; hairpin DNA, in vitro; whole hairpin DNA, median over replicate spots; reference: not given): 3380 a.u.

GAGGCCCAACCGCACGAGCCTCCTGGCTCGTGCGGTTGGGCCTCACACTC (5mC at 15)
median fluorescence (Runt-related transcription factor 3, Runt domain (RUNX3, Homo sapiens, UniProt Q13761, residues 53-186); protein-binding microarray; hairpin DNA, in vitro; whole hairpin DNA, median over replicate spots; reference: not given): 7520 a.u.

Repeated from above (single results of other studies):
GAGGCCATGCGAACAACGCCTCCTGGCGTTGTTCGCATGGCCTCACACTC
median fluorescence (Hepatocyte nuclear factor 3-beta, forkhead domain (FOXA2, Homo sapiens, UniProt Q9Y261, residues 142-269); protein-binding microarray; hairpin DNA, in vitro; whole hairpin DNA, median over replicate spots; reference: not given): 3380 a.u.

GAGGCCCCGAAGTGAAACGCCTCCTGGCGTTTCACTTCGGGGCCTCACAC
median fluorescence (Interferon regulatory factor 1, DNA-binding domain (IRF1, Homo sapiens, UniProt P10914, residues 1-114); protein-binding microarray; hairpin DNA, in vitro; whole hairpin DNA, median over replicate spots; reference: not given): 628 a.u.

AAAAAATTCCGCGTGTATGTGTACGTAAAA
relative absorbance (Probable WRKY transcription factor 11, DNA-binding domain (WRKY11, Arabidopsis thaliana, UniProt Q9SV15, residues 228-325); DNA-protein interaction ELISA; double-stranded DNA, one strand shown, in vitro, bacterial lysate; whole dsDNA probe, crude lysate protein; reference: highest signal in screen): 16.4 % of maximum

GAGGCCAGCGCGTAAAAGCCTCCTGGCTTTTACGCGCTGGCCTCACACTC
median fluorescence (Homeobox protein Hox-C11, full length (HOXC11, Homo sapiens, UniProt O43248, residues 1-304); protein-binding microarray; hairpin DNA, in vitro; whole hairpin DNA, median over replicate spots; reference: not given): 10600 a.u.
